Experimental data gathered from unrelated publications.
Compare with care: the assays were run in different laboratories. Numbers after ± are the reported error.
Target: Calcium/calmodulin-dependent protein kinase type 1 (CAMK1, Homo sapiens, UniProt Q14012)
Chain of UniProt Q14012 (whole entry, looked up): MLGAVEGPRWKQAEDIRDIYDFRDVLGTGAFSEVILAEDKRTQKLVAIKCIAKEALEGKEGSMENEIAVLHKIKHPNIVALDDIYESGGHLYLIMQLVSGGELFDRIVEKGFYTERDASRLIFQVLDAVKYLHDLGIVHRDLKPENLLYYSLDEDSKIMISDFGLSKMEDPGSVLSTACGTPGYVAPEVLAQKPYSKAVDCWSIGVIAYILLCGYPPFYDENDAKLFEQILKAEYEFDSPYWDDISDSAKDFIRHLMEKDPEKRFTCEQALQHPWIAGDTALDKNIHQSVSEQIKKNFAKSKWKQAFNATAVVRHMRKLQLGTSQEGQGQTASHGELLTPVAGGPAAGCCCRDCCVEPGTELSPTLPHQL

SMILES = C=CC(=O)N1CCC[C@@H](n2nc(-c3ccc(Oc4ccccc4)cc3)c3c(N)ncnc32)C1; test = kinase activity, inhibitor, HotSpot radiometric; setting = 100 nM, together with: ATP 10 µM; quantity = remaining activity; value = 78.4 ± 0.9%
SMILES = C=CC(=O)N1CCC(COCC(=O)N2CCN(c3nc(-c4cnc(N)nc4C(F)F)nc(N4CCOC[C@@H]4C)n3)CC2)CC1; test = KINOMEscan; setting = 1 µM; quantity = remaining binding; value = 100%
SMILES = COc1ccc(F)cc1C(=O)NCc1ccc(-c2nn([C@@H](C)C(F)(F)F)c(N)c2C(N)=O)cc1; setting = 1000 nM, together with: ATP at Km; quantity = remaining activity; value = 96.4 ± 3.5%
SMILES = COc1cc(F)ccc1-c1ncnc(Nc2cccc(C[S@](C)(=N)=O)c2)n1; test = kinase activity; setting = 10 µM, together with: 10 µM ATP; quantity = remaining activity; value = 101%
SMILES = C=CC(=O)N1CCC([C@@H]2CCNc3c(C(N)=O)c(-c4ccc(Oc5ccccc5)cc4)nn32)CC1; test = kinase activity, inhibitor, HotSpot radiometric; setting = 100 nM, together with: ATP 10 µM; quantity = remaining activity; value = 97.4 ± 0.2%
SMILES = Cc1cc(Nc2cc(N3CCN(C)CC3)nc(Sc3ccc(NC(=O)C4CC4)cc3)n2)[nH]n1; test = kinase activity, KinaseProfiler; setting = 0.03 µM, species human; scale = reference: control; quantity = remaining activity; value = 104%
SMILES = O=C1NC(=O)/C(=C/c2ccc(-c3ccc(F)cc3O)o2)S1; test = enzyme activity; setting = 10 µM; quantity = remaining activity; value = 46%
SMILES = CC[C@@H]1[C@H](F)C(=O)N[C@@H]1COc1nccc2cc(C(N)=O)c(OC)cc12; test = ATP probe binding, KiNativ profiling, measured: Lys1 probe site; test system = THP-1 cell lysate; setting = 0.04 mM; quantity = inhibition; value = 9.8%
SMILES = C=CC(=O)N1CCC[C@@H](n2nc(-c3ccc(Oc4ccccc4)cc3)c3c(N)ncnc32)C1; setting = 0.1 µM; quantity = remaining activity; value = 85.9%

Some of these lines once more:
SMILES = CC[C@@H]1[C@H](F)C(=O)N[C@@H]1COc1nccc2cc(C(N)=O)c(OC)cc12; test = ATP probe binding, KiNativ profiling, measured: Lys1 probe site; test system = THP-1 cell lysate; setting = 0.04 mM; quantity = inhibition; value = 9.8%
